{"data": "Published values gathered from unrelated publications", "note": "Numbers after ± are the reported error."}
{"assay": "ultracentrifugation", "test system": "human liver microsomes 0.25 mg/mL protein", "setting": "2 h, pH 7.4", "fraction unbound": "0.17 ± 0.028", "SMILES": "CCNCCOc1c(I)cc(C(=O)c2c(CCC(C)O)oc3ccccc23)cc1I (stereo not drawn)"}
{"assay": "equilibrium dialysis", "test system": "rat plasma", "setting": "0.5-25 µM", "fraction unbound": "0.09 to 0.12", "SMILES": "CC(=O)c1cnc(N)nc1N1CC[C@H]1c1nn2ccc(Cl)c2c(=O)n1-c1ccccc1"}
{"test system": "plasma", "fraction unbound": "2.05%", "SMILES": "CO[C@H]1/C=C/O[C@@]2(C)Oc3c(C)c(O)c4c(c3C2=O)C2=NC3(CCN(CC(C)C)CC3)NC2=C(NC(=O)/C(C)=C\\C=C\\[C@H](C)[C@H](O)[C@@H](C)[C@@H](O)[C@@H](C)[C@H](OC(=O)c2cccnc2)[C@@H]1C)C4=O"}
{"assay": "equilibrium dialysis", "test system": "human plasma", "setting": "10 µM", "fraction unbound": "0.1 ± 0.03", "SMILES": "NC(=O)c1c(F)ccc(OCc2nc3cc(Cl)cnc3s2)c1F"}
{"assay": "in vitro", "test system": "mouse plasma", "fraction unbound": 0.251, "SMILES": "Cc1ncc2c(n1)CN(C(=O)Nc1nc(-c3cccs3)ccc1N)C2"}
{"assay": "equilibrium dialysis", "test system": "human plasma", "setting": "1 µM, 16 h, 37 °C", "fraction unbound": "0.149 ± 0.024%", "SMILES": "CC(NC(=O)OC1OC(C(=O)O)C(O)C(O)C1O)c1cc(Cl)ccc1Cn1c(=S)[nH]c(=O)c2[nH]ccc21 (stereo not drawn)"}
{"assay": "ultracentrifugation", "test system": "human liver microsomes 0.25 mg/mL protein", "setting": "2 h, pH 7.4", "fraction unbound": "0.011 ± 0.003", "SMILES": "CCCCc1oc2ccccc2c1C(=O)c1cc(I)c(OCCN)c(I)c1"}
{"assay": "equilibrium dialysis", "test system": "rat plasma", "fraction unbound": 0.046, "SMILES": "Brc1ccccc1-c1nnc(CSc2nnnn2-c2ccccc2)o1"}
{"test system": "caseum", "fraction unbound": "6e-05", "SMILES": "COc1ccccc1NC(=O)OC1C(C)C(OC)C=COC2(C)Oc3c(C)c(O)c4c(c3C2=O)C2=NC3(CCN(CC(C)C)CC3)NC2=C(NC(=O)C(C)=CC=CC(C)C(O)C(C)C(O)C1C)C4=O (stereo not drawn)"}
{"assay": "ultracentrifugation", "test system": "human plasma", "setting": "2 h", "fraction unbound": "0.0013 ± 0.0001", "SMILES": "CCCCc1oc2ccccc2c1C(=O)c1cc(I)c(O)c(I)c1"}
{"assay": "rapid equilibrium dialysis", "test system": "mouse plasma", "fraction unbound": 0.017, "SMILES": "COC1C=COC2(C)Oc3c(C)c(O)c4c(c3C2=O)C2=NC3(CCN(CC(C)C)CC3)NC2=C(NC(=O)C(C)=CC=CC(C)C(O)C(C)C(O)C(C)C(OC(=O)Nc2cscn2)C1C)C4=O (stereo not drawn)"}
{"test system": "plasma", "fraction unbound": "~0.2", "SMILES": "CN1CCc2nc(C(=O)NC3CC(C(=O)O)CCC3NC(=O)C(=O)Nc3ccc(Cl)cn3)sc2C1 (stereo not drawn)"}
{"assay": "equilibrium dialysis", "test system": "rat plasma", "setting": "1 µM, 6 h, pH 7.4", "fraction unbound": "< 0.001", "SMILES": "COc1ccc2c(c1OCc1ccccc1)C[C@@H](C(=O)O)N(c1nc3ccc(C#N)cc3o1)C2"}
{"test system": "human plasma", "fraction unbound": 0.103, "SMILES": "COC1C=COC2(C)Oc3c(C)c(O)c4c(c3C2=O)C2=NC3(CCN(CC(C)C)CC3)NC2=C(NC(=O)C(C)=CC=CC(C)C(O)C(C)C(O)C(C)C(OC(=O)Nc2cccnn2)C1C)C4=O (stereo not drawn)"}
{"assay": "equilibrium dialysis", "test system": "human plasma", "setting": "1 µM, 5 h, pH 7.4", "fraction unbound": 0.025, "SMILES": "CCN(CC)CC#CCNc1ccnc2cc(Cl)ccc12"}
{"assay": "rapid equilibrium dialysis", "test system": "mouse plasma", "fraction unbound": 0.042, "SMILES": "COC1C=COC2(C)Oc3c(C)c(O)c4c(c3C2=O)C2=NC3(CCN(CC(C)C)CC3)NC2=C(NC(=O)C(C)=CC=CC(C)C(O)C(C)C(O)C(C)C(OC(=O)Nc2cnccn2)C1C)C4=O (stereo not drawn)"}
{"test system": "rat liver microsomes", "setting": "0.5 µM, 1 mg/mL protein", "fraction unbound": "24.2%", "SMILES": "O=C(Cc1ccccc1)Nc1nc2ccccc2n1Cc1ccccc1"}
{"assay": "rapid equilibrium dialysis", "test system": "mouse plasma", "fraction unbound": 0.047, "SMILES": "COC1C=COC2(C)Oc3c(C)c(O)c4c(c3C2=O)C2=NC3(CCN(CC(C)C)CC3)NC2=C(NC(=O)C(C)=CC=CC(C)C(O)C(C)C(O)C(C)C(OC(=O)c2cncnc2)C1C)C4=O (stereo not drawn)"}
{"assay": "ultracentrifugation", "test system": "human liver microsomes 0.25 mg/mL protein", "setting": "2 h, pH 7.4", "fraction unbound": "0.012 ± 0.004", "SMILES": "CCCCc1oc2ccccc2c1C(=O)c1cc(I)c(OCCNCC)c(I)c1"}
{"test system": "human plasma", "fraction unbound": 0.039, "SMILES": "COC1C=COC2(C)Oc3c(C)c(O)c4c(c3C2=O)C2=NC3(CCN(CC(C)C)CC3)NC2=C(NC(=O)C(C)=CC=CC(C)C(O)C(C)C(O)C(C)C(OC(=O)c2cccnc2)C1C)C4=O (stereo not drawn)"}
{"assay": "equilibrium dialysis", "test system": "rat plasma", "fraction unbound": 0.006, "SMILES": "Cc1ccc(O)c2c3c(nn12)CCC(C)(NC(=O)c1ccc(-n2cnc4cc(C(=O)O)ccc42)cc1Cl)C3 (stereo not drawn)"}
